Published values collected from several papers.
Every numbered part comes from another study and shows a few of its results, in no order.

Set 1
Target: Interferon regulatory factor 3, full length, phosphomimetic (IRF3, Homo sapiens, UniProt Q14653, residues 1-427, S386D/S396D/S398D/S402D/T404D/S405D)
UniProt Q14653, sequence (whole entry, unmodified, looked up): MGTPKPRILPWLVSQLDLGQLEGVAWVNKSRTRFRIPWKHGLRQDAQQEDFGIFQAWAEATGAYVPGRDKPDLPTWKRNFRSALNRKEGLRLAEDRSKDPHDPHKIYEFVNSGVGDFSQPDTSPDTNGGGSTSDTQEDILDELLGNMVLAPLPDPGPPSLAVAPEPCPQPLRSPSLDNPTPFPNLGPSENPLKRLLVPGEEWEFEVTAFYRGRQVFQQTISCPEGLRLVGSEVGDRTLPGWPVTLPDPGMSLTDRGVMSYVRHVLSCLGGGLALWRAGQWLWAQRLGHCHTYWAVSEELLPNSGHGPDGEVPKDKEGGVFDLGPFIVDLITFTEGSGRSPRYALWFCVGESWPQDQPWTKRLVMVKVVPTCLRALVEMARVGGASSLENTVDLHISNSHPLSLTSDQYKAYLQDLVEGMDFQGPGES
Technique: protein-binding microarray
Molecule type: double-stranded DNA, one strand shown
Sample: in vitro
Concentration: 2540 nM top
Setting: 60-bp whole probe
Added: salmon DNA 0.4 mg/ml
Baseline: random background probes
Direction: higher = stronger binding
Sequence | fitted relative affinity [z-score]
GCCTAGCACTTAGATCTCAGTTACGATTAGTGCTAGGTCTTGATTCGCTTGACGCTGCTG | 0.512
GCCTAGCACGACGGTCTCGGTTTCGGGACGTGCTAGGTCTTGATTCGCTTGACGCTGCTG | 4.07
GCCTAGCACGCACGTGACTGTTTCCCAATGTGCTAGGTCTTGATTCGCTTGACGCTGCTG | 3.12

Set 2
Target: Max dimerization protein 1, bHLH-zipper, MAX partner unstated (MXD1, Homo sapiens, UniProt Q05195, residues 56-136)
Technique: protein-binding microarray
Molecule type: double-stranded DNA, one strand shown
Sample: in vitro
Concentration: not given
Setting: k-mer, scored over probes, only values ≥0.25
Direction: higher = stronger binding
Target sequence (chain): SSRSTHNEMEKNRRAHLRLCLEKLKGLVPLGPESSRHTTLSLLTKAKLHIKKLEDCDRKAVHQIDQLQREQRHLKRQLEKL
Sequence | E-score
ATTGCACG | 0.286
ACGCTCGC | 0.264
CGTACACG | 0.354
CGTGTGAG | 0.332

Set 3
Target: PABPC1L2, full length, GST fusion (mouse, UniProt A0ABA7IW68)
Technique: RNAcompete
Molecule type: RNA
Sample: in vitro
Concentration: 20 nM
Setting: 7-mer, probes averaged, single round
Baseline: mean of 7-mers
Direction: higher = stronger binding
Residues (chain): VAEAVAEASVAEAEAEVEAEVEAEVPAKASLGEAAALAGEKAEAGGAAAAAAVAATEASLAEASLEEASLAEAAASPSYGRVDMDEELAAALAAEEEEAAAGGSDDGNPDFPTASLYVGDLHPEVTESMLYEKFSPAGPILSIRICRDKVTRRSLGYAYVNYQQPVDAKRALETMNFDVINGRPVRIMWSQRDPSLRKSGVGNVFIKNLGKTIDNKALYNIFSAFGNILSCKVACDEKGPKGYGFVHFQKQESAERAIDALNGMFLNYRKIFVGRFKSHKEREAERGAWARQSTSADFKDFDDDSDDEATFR
Sequence | 7-mer Z-score
AGCGUGU | -0.208
AAUUUGA | 0.209
GCCGCGU | -0.3
UGGGUUU | -0.333

Single results of other studies
Molecule | target | test | system | conditions | scale | measurement | value
PhoQ, residues 284 288 289 292 302 303 SLSVQF | PhoP, residues 12 14 15 18 19 LHTVM (Escherichia coli, UniProt P23836) | Sort-seq, refers to: YFP reporter | E. coli | PhoQ-PhoP variant library, added: 10 µM Mg2+ | baseline: high Mg2+ state, higher = stronger signaling | fold induction | 1.82
